Assay results from different studies.
Each numbered part is a random draw from the data of one study; scales do not carry over between parts.

Study 1 — method: protein binding microarray; molecule type: double-stranded DNA, one strand shown; matrix: in vitro; tested at: not given; baseline: not given; reading: higher = stronger binding
Target: Histone acetyltransferase KAT6A, both winged helices, GST fusion (KAT6A, Homo sapiens, UniProt Q92794, residues 1-181)
Notes: 8-mer, flanks averaged, mean of 2 arrays, mostly near background
Target sequence (chain): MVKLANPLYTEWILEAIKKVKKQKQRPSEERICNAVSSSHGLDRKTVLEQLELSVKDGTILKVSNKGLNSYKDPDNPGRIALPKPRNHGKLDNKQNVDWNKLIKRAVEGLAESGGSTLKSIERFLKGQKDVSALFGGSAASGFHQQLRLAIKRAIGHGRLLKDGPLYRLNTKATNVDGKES
Strand | E-score
GAGTACAA | -0.0737
ACTTTCAG | -0.0978
ACTACCTA | -0.0552
ACGGATGA | 0.164

Study 2 — method: RNA Bind-n-Seq; molecule type: RNA; matrix: in vitro; tested at: 200 nM; notes: whole 134-nt RNA, ends assumed; added: 150 mM LiCl; baseline: input library; reading: higher = stronger binding; each molecule: 7-deaza-guanosine replaces G
Target: Ras GTPase-activating protein-binding protein 1, full length (G3BP1, Homo sapiens, UniProt Q13283)
Chain of UniProt Q13283 (whole entry, looked up): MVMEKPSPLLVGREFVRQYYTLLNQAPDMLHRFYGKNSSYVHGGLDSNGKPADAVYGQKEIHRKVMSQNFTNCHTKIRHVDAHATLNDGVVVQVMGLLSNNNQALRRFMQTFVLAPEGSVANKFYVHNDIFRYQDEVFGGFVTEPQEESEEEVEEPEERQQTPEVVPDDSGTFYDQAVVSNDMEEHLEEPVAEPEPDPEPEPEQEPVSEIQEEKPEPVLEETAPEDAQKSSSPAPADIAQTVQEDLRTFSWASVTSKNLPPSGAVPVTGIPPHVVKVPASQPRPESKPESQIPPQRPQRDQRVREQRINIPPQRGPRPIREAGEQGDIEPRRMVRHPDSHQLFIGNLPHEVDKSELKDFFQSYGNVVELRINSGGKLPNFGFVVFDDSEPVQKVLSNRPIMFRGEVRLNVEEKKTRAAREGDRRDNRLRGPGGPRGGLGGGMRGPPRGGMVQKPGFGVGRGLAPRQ
Strand | log2 enrichment
GGGAGUUCUACAGUCCGACGAUCCCUCAAGUCCUGUGCUACACAUCGUAUGUACCGAAUCGGUGGUUUGGUUUGGAAAGUAUUAUGUUACGCCGUUCGGAUCUGCACUUCCAGUGGAAUUCUCGGGUGUCAAGG | -0.463
GGGAGUUCUACAGUCCGACGAUCUCCUGUGCUACACAUCGUAUGUACCGAAUCGGGGUUUGGGGUUUUUUUGGGGAAAGGGGAAAGUAUUAUGUUACGCCGUUCGGAUCUGCAUGGAAUUCUCGGGUGUCAAGG | 0.465
GGGAGUUCUACAGUCCGACGAUCCACAGACAACACGCACCCACACAGACACAGAGGGAAGGGGUUGGGAUGGGGACAGGGUGCACAGCAGGGCGAGGUAGGACCCCAGCCCCUUGGAAUUCUCGGGUGUCAAGG | 0.124
GGGAGUUCUACAGUCCGACGAUCGCAGGAAGUAAAAACAAAUGGAAAUGCUUCGGAUAGUGGUAGGGGUGGGGGUUGCUAAGGAAAGGGUGGGAUGGGAGUGGGUAAAGAGUUUGGAAUUCUCGGGUGUCAAGG | 0.369

Study 3 — method: RNAcompete; molecule type: RNA; matrix: in vitro; tested at: 20 nM; notes: 7-mer, probes averaged, single round; baseline: mean of 7-mers; reading: higher = stronger binding
Target: PABPC1L2, full length, GST fusion (mouse, UniProt A0ABA7IW68)
Target sequence (chain): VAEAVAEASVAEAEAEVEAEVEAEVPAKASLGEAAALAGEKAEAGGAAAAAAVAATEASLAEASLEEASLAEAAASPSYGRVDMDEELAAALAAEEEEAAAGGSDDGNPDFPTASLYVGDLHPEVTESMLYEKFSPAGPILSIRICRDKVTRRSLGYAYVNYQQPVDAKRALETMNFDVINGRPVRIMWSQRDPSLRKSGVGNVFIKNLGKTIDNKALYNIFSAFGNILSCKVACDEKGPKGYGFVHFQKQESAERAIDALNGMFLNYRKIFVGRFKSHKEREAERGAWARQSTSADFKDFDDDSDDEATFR
Strand | 7-mer Z-score
GAGUGGC | 0.066
CGCAUAA | 0.36
UUUUUCU | -0.282
ACUACAA | 0.309

Other studies, line by line
Substance | target | test | test system | setting | scale | endpoint | result
PhoQ, residues 284 288 289 292 302 303 SLSVQF | PhoP, residues 12 14 15 18 19 SEGLL (Escherichia coli, UniProt P23836) | Sort-seq, measured: YFP reporter | E. coli | PhoQ-PhoP variant library, added: 10 µM Mg2+ | baseline: high Mg2+ state, higher = stronger signaling | fold induction | 21.2
